Results pooled from the literature.
Lines come from different studies, so protocols differ. Values joined by “and” are separate records of one study, mostly repeats; a detail may differ. Numbers after ± are the reported error. Values after ≈ are worked out from the molar mass of the structure shown.

Compound | organism | test | system | setting | scale | measurement | result
C=C[C@]1(C)C[C@@H](OC(=O)CSc2ccc(NC(=O)c3ccco3)cc2)[C@]2(C)[C@H](C)CC[C@]3(CCC(=O)[C@H]32)[C@@H](C)[C@@H]1O | Mycoplasma gallisepticum |  | infected chickens, lung | intramuscular |  | bactericidal dose | > 60 mg/kg
COc1ccccc1NC(=O)OC1C(C)C(OC)C=COC2(C)Oc3c(C)c(O)c4c(c3C2=O)C2=NC3(CCN(CC(C)C)CC3)NC2=C(NC(=O)C(C)=CC=CC(C)C(O)C(C)C(O)C1C)C4=O (centres unmarked) | Mycobacteroides abscessus | intracellular growth, visual read | THP-1 derived macrophages, ATCC 19977 |  |  | IC90 | 0.095 µM
CC(C)=CCC/C(C)=C/CC/C(C)=C/Cc1c(O)cc(CO)c(C=O)c1O | Stachybotrys chartarum |  |  | 30 min, pH 7.0, 25 °C |  | Vmax | 8.6 nmol/min/mg
CC(c1c[nH]c2ccccc12)c1c[nH]c2ccccc12 | Clostridioides difficile | microbial growth, absorbance |  |  |  | IC50 | > 50 µM
CCCOC(=O)N1c2cc(CNC)ccc2[C@H](NC(=O)C(=O)Nc2ccc(Cl)c(F)c2)[C@H]1CNC(=N)N | HIV-1 | pseudovirus infection, Env pseudovirus neutralisation | TZM-bl, clade C T/F isolate 2A2 |  |  | IC80 | 25.1 µM
Cc1cccc2c1N(C(=O)n1ccnn1)CC2 | Arabidopsis thaliana |  | wild type, seeds | 30 µM, high ambient temperature |  | germination rate | 13.8% and 7% and 62.5% and 10% and 12.5% and 8.6%
CC(C)(C)NCC(SS(=O)(=O)O)c1ccccc1 (centres unmarked) | Schistosoma mansoni |  | Swiss Webster mouse, infected | oral, 600 mg/kg single dose, 44 days p.i., dosed day 1 p.i. |  | spleen weight | 0.44 g and 0.36 g and 0.45 g and 0.38 g
Fc1ccc2c(c1)c1nc3ccc(Br)cc3c-1cn2Cc1cn(-c2ccccc2I)nn1 | Giardia duodenalis trophozoites | UHPLC-Q-TOF-MS metabolomics, refers to: 1-heptadecanoyl-sn-glycero-3-phosphocholine |  | IC50, 0.1535 h | baseline: 0.25% DMSO | fold change | 1.59
N=C(N)NCCC[C@@H]1NC(=O)[C@H](CCCNC(=N)N)NC(=O)[C@@H](C(c2ccccc2)c2ccccc2)NC(=O)[C@H](Cc2c[nH]c3ccccc23)NC(=O)[C@@H](C(c2ccccc2)c2ccccc2)NC(=O)[C@@H](CCCNC(=N)N)NC(=O)[C@@H](CCCNC(=N)N)NC1=O | Candida albicans |  | ATCC 60193 | MIC, 12 h |  | reduction of viable cells | > 65%
CCCCCCCCCC(=O)N[C@@H](Cc1c[nH]c2ccccc12)C(=O)N[C@H](CC(N)=O)C(=O)N[C@@H](CC(=O)O)C(=O)N[C@@H]1C(=O)NCC(=O)N[C@@H](CCCNC(=O)OC2/C=C/CCCCC2)C(=O)N[C@@H](CC(=O)O)C(=O)N[C@H](C)C(=O)N[C@@H](CC(=O)O)C(=O)NCC(=O)N[C@H](CO)C(=O)N[C@@H]([C@H](C)CC(=O)O)C(=O)N[C@@H](CC(=O)c2ccccc2N)C(=O)O[C@@H]1C (some centres unmarked) | Staphylococcus aureus | planktonic bacterial growth, isothermal microcalorimetry | MSSA | 3.0 µg/mL, 24 h, 37 °C |  | peak heat flow | 0 µW
CC1(C)[C@H](NC(=O)/C(=N\OCc2c(Cl)cccc2Cl)c2nsc(N)n2)C(=O)N1OS(=O)(=O)O | Citrobacter freundii | agar dilution | ATCC 43864, susceptible |  |  | MIC | 4 mg/L (≈ 7.42 µM)
COC1C=COC2(C)Oc3c(C)c(O)c4c(c3C2=O)C2=NC3(CCN(CC(C)C)CC3)NC2=C(NC(=O)C(C)=CC=CC(C)C(O)C(C)C(O)C(C)C(OC(=O)Nc2cnccn2)C1C)C4=O (centres unmarked) | Mycobacteroides abscessus | bacterial growth | subsp. massiliense 095 clinical isolate | mixed morphotype |  | IC50 | 0.163 µM
c1ccc2c(Cc3c(-c4c[nH]c5ccccc45)[nH]c4ccccc34)c[nH]c2c1 | Clostridioides difficile | microbial growth, absorbance |  |  |  | IC50 | > 50 µM
Cc1c(CN(C)C(=O)/C=C/c2cnc3c(c2)CC(N)C(=O)N3)oc2ccccc12 (centres unmarked) | Acinetobacter baumannii | broth microdilution | AR-0311 |  |  | MIC | 8 mg/L (≈ 20.5 µM)
C=C(NC(=O)c1csc(-c2nc3c(cc2O)-c2nc(cs2)C(=O)NC(C(C)O)C(=O)NC(=C(C)OC)c2nc(cs2)C(=O)NC2c4nc(cs4)C(=O)NC(COC(=O)c4c5c6c(cccc6n4O)COC(=O)C(OC4CC(C)(O)C(N(C)C)C(C)O4)C2OC5)c2nc-3cs2)n1)C(N)=O (centres unmarked) | Streptococcus pneumoniae |  | -4, immunocompromised mice, lung | 2 mg/kg/day once daily, 24 h post-dose |  | lung bacterial load | 6.81 log10 CFU/lung
NC(=O)c1cccc(NC(=O)c2cc(-c3ccccc3)n(-c3ccccc3)n2)c1 | Dengue virus | viral replication, inhibitor, imaging | Vero, DENV2 | 12.5 µM |  | inhibition | < 50%
FC(F)(F)c1cccc(CNc2nc(NC3CCN(Cc4ccccc4)CC3)c3nc[nH]c3n2)c1 | Cryptococcus neoformans | RNA-seq, refers to: PLC2 (CNAG_02968) mRNA |  | 48 µg/mL, 3 h | baseline: untreated wild type | log2 fold change | 0.206
CN(Cc1ccc(C2(C(F)(F)F)CCC2)cc1)Cc1cccc2ccccc12 | Trichophyton rubrum | microbial growth, disc diffusion | ATCC28188 | 0.512 µg/mL, 6 days |  | inhibition zone | 52.5 mm
CC1(C)[C@H](NC(=O)/C(=N\OCCN)c2nsc(N)n2)C(=O)N1OS(=O)(=O)O | Providencia rettgeri | agar dilution | ATCC 31052, susceptible |  |  | MIC | 0.06 mg/L (≈ 0.142 µM)
Cc1[nH]c2ccccc2c1CC(=O)N[C@@H](Cc1ccccc1)C(=O)N(C)c1ccccc1 | human immunodeficiency virus 1 | viral replication | NL4-3 with subtype B gag/pol |  |  | EC50 | 0.41 ± 0.03 µM
O=C1/C(=C(\O)C2CCCCC2)C(=O)[C@@]2(C(=O)OCc3ccc(Br)cc3)CS[C@H](c3ccccc3)N12 | Streptomyces | bacterial growth, broth dilution | Mueller-Hinton broth | 24 h, 35 °C |  | MIC | 0.49 mg/L (≈ 0.881 µM)
CC(C)[C@H](NC(=O)OCc1ccccc1)C(=O)N(C)[C@@H](Cc1ccc(OC(C)(C)C)cc1)C(=O)Nc1ccccc1C(=O)N[C@@H](C)C(=O)O | Candida albicans | potentiator, broth microdilution | ATCC 90029 | 4.0 µg/mL, added: amphotericin B | baseline: amphotericin B alone | fold potentiation | 8
CC(O)CNCC(C)O.O=C(O)C(Cl)Cl (centres unmarked) | Xanthium sibiricum |  |  | 15 mg/mL, 21 days, pre-emergence, greenhouse |  | herbicidal inhibition | 0%

A few entries again:
Compound | organism | test | system | setting | scale | measurement | result
C=C(NC(=O)c1csc(-c2nc3c(cc2O)-c2nc(cs2)C(=O)NC(C(C)O)C(=O)NC(=C(C)OC)c2nc(cs2)C(=O)NC2c4nc(cs4)C(=O)NC(COC(=O)c4c5c6c(cccc6n4O)COC(=O)C(OC4CC(C)(O)C(N(C)C)C(C)O4)C2OC5)c2nc-3cs2)n1)C(N)=O (centres unmarked) | Streptococcus pneumoniae |  | -4, immunocompromised mice, lung | 2 mg/kg/day once daily, 24 h post-dose |  | lung bacterial load | 6.81 log10 CFU/lung
C=C[C@]1(C)C[C@@H](OC(=O)CSc2ccc(NC(=O)c3ccco3)cc2)[C@]2(C)[C@H](C)CC[C@]3(CCC(=O)[C@H]32)[C@@H](C)[C@@H]1O | Mycoplasma gallisepticum |  | infected chickens, lung | intramuscular |  | bactericidal dose | > 60 mg/kg
FC(F)(F)c1cccc(CNc2nc(NC3CCN(Cc4ccccc4)CC3)c3nc[nH]c3n2)c1 | Cryptococcus neoformans | RNA-seq, refers to: PLC2 (CNAG_02968) mRNA |  | 48 µg/mL, 3 h | baseline: untreated wild type | log2 fold change | 0.206
